# Assay results pooled from the literature.
# ± marks the error that the study gave.
Compound,assay,test system,setting,scale,endpoint,value
C#C[C@]1(CO)O[C@@H](n2cnc3c(N)nc(F)nc32)C[C@@H]1O,,"human, plasma","oral, 30 mg once weekly, week 1",,AUC(0-168 h),3.26 µM·h
Cc1ccc(NC(=O)c2ccc(CN3CCN(C)CC3)cc2)cc1Nc1nccc(-c2cncc(-c3oncc3C)c2)n1,,"Parkinson's disease patients, plasma","oral, 100 mg once daily, day 7, 7-day dosing, mean",,AUC(0-tau),45700 ng·h/mL
COc1cc(Nc2ncc3c(n2)-c2ccc(Cl)cc2C(c2c(F)cccc2OC)=NC3)ccc1C(=O)O,,"human, plasma","oral, 20 mg twice daily, day 7, steady state geometric mean",,AUC dosing interval,10.2 µM·h
Nc1ccn([C@@H]2O[C@H](CO)[C@@H](O)C2(F)F)c(=O)n1,,"human, plasma","intravenous, 750 mg/m2, cycle 1 day 1, added: lonafarnib 150 mg twice daily",,AUC(0-tau),5950 ng·h/mL
O=c1c(-c2ccc(O)cc2)coc2cc(O)cc(O)c12,mitochondrial swelling,BALB/cByJ female mouse liver mitochondria,"30 min, added: succinate + rotenone",reference: CaCl2 maximal swelling,EC20,> 200 µM
CO[C@H]1C[C@@H]2CC[C@@H](C)[C@@](O)(O2)C(=O)C(=O)N2CCCC[C@H]2C(=O)O[C@H]([C@H](C)C[C@@H]2CC[C@@H](O)[C@H](OC)C2)CC(=O)[C@H](C)/C=C(\C)[C@@H](O)[C@@H](OC)C(=O)[C@H](C)C[C@H](C)/C=C/C=C/C=C/1C,,"human, whole blood","oral, 25 mg, without grapefruit juice",,Cmax,84.7 ng/mL
CC(C)NCC1CCc2cc(CO)c([N+](=O)[O-])cc2N1 (stereo not drawn),,mouse liver microsomes,"1 µM, pH 7.4, 0.5 mg protein/mL",,intrinsic clearance,132 µL/min/mg
CCCC(=O)OCC1OC(OC(=O)CCC)C(NC(C)=O)[C@@H](OC(=O)CCC)[C@@H]1OC(=O)CCC (stereo partly drawn),sialic acid production,fetal bovine serum,added: 100% serum pre-incubation,,serum stability time,2 to 4 h
Cc1ccccc1-c1cc(N2CCN(C)CC2)ncc1N(C)C(=O)C(C)(C)c1cc(C(F)(F)F)cc(C(F)(F)F)c1,CLint with/without CYP3A4 inhibitor,human liver microsomes,,,CYP3A4 contribution to metabolism,95%
Cc1c(C)c2c(c(C)c1O)CCC(C)(COc1ccc(CC3SC(=O)NC3=O)cc1)O2 (stereo not drawn),"cytochrome c release, ELISA",BALB/cByJ female mouse liver mitochondria,30 min,reference: alamethicin maximal release,EC20,> 400 µM
CC(C)[C@H](NC(=O)[C@@H]1CCCN1C(=O)[C@H](CCCNC(=N)N)NC(=O)[C@H](CS)NC(=O)[C@H](Cc1c[nH]c2ccccc12)NC(=O)[C@H](CCCNC(=N)N)NC(=O)[C@@H](Cc1ccccc1)NC(=O)[C@H](Cc1c[nH]cn1)NC(=O)[C@H](CCC(=O)O)NC(=O)[C@H](CS)NC(=O)[C@H](CS)NC(=O)[C@H](CCCCN)NC(=O)[C@@H]1CC(=O)N[C@@H](CCCNC(=N)N)C(=O)N[C@@H]([C@@H](C)O)C(=O)N[C@@H](CC(=O)O)C(=O)N[C@H](Cc2ccc(O)cc2)C(=O)N1)C(N)=O [technetium-99m labelled],,"C57 mouse, female, B16/F1 melanoma, muscle","intravenous, 2 h, added: NDP-MSH 10 µg co-injected",,tissue uptake,0.33 ± 0.03 %ID/g
CCCC[C@@H]1NC(=O)[C@@H](NC(=O)[C@H](CCC(=O)O)NC(=O)CNC(=O)CN2CCN(CC(=O)O)CCN(CC(=O)O)CCN(CC(=O)O)CC2)CCCCNC(=O)C[C@@H](C(N)=O)NC(=O)[C@H](C(C)C)NC(=O)[C@@H]2CCCN2C(=O)[C@H](CCCNC(=N)N)NC(=O)CNC(=O)[C@H](Cc2c[nH]c3ccccc23)NC(=O)[C@H](CCCNC(=N)N)NC(=O)[C@@H](Cc2ccccc2)NC(=O)[C@H](Cc2c[nH]cn2)NC(=O)[C@H](CCC(=O)O)NC1=O [indium-111 labelled],,"normal C57 mice, blood","intravenous, 0.037 MBq, 24 h",,tissue uptake,0.03 ± 0.02 %ID/g
CNC(=O)c1cc(Oc2ccc(NC(=O)Nc3ccc(Cl)c(C(F)(F)F)c3)cc2)ccn1,LC-MS/MS,"nude mouse subcutaneous tumour model, tumour tissue","intratumoral, 2 mg/kg, PDC 3 control",,t1/2,28.4 ± 9.86 h
CNC(C)C1CCC(N)C(OC2C(N)CC(N)C(OC3OCC(C)(O)C(NC)C3O)C2O)O1 (stereo not drawn),mitochondrial swelling,BALB/cByJ female mouse liver mitochondria,"30 min, added: succinate + rotenone",reference: CaCl2 maximal swelling,EC20,> 800 µM
Cc1cnn2ncc(-c3ccnc(N(C)C)n3)c2c1,,rat liver microsomes,,,intrinsic clearance,164 µL/min/mg

# A few entries again:
Compound,assay,test system,setting,scale,endpoint,value
CNC(C)C1CCC(N)C(OC2C(N)CC(N)C(OC3OCC(C)(O)C(NC)C3O)C2O)O1 (stereo not drawn),mitochondrial swelling,BALB/cByJ female mouse liver mitochondria,"30 min, added: succinate + rotenone",reference: CaCl2 maximal swelling,EC20,> 800 µM
Cc1cnn2ncc(-c3ccnc(N(C)C)n3)c2c1,,rat liver microsomes,,,intrinsic clearance,164 µL/min/mg
